Experimental data collected from several papers.
Numbers after ± are the reported error.

Structure (SMILES) | technique | matrix | tested at | time | temperature | setting | measured concentration [ng/mL]
COc1ccc(-c2cc(=O)c3c(O)cc(O[C@@H]4O[C@H](CO[C@@H]5O[C@@H](C)[C@H](O)[C@@H](O)[C@H]5O)[C@@H](O)[C@H](O)[C@H]4O)cc3o2)cc1 | short-term stability | rat plasma |  | 8 h | room temperature | high QC level | 2931 ± 17.8
COc1ccnc(C[S+]([O-])c2nc3cc(-n4cccc4)ccc3[nH]2)c1C (centres unmarked) |  | rat plasma | 250 ng/mL spiked |  |  | three freeze-thaw cycles | 257
COC(=O)C(c1ccccc1Cl)N1CCC(SCC(=O)c2cccc(OC)c2)C(=CC(=O)O)C1 (centres unmarked) | LC-MS/MS | human plasma | 50 ng/mL | 45 days | -80 °C |  | 50.4 ± 1.2
CNC(=O)N[C@]1(C)CCC[C@@]2(C)C3CC[C@@]4(C)C[C@]3(CCC21)CC4=O (single isomer, unassigned) |  | rat plasma | 400 ng/mL | 101 d | -80 °C | long-term storage stability | 402 ± 19
COC(=O)C(c1ccccc1Cl)N1CCC2SC(=O)C=C2C1 (centres unmarked) | LC-MS/MS | human plasma extract | 50 ng/mL spiked | 24 h | 4 °C | autosampler | 49 ± 3.7
Cc1[nH]c(/C=C2\C(=O)Nc3ccc(F)cc32)c(C)c1NC(=O)CCN1CCN(C)CC1 |  | dog plasma | 40 ng/mL nominal |  |  | three freeze-thaw cycles at -20 °C | 40.8
C[N+](C)(C)CC(CC(=O)[O-])OC(=O)CCC(=O)Nc1ccn([C@@H]2O[C@H](CO)[C@@H](O)C2(F)F)c(=O)n1 (some centres unmarked) |  | extracted rat plasma | 125.00 ng/mL | 8 h | 10 °C | autosampler stability, mid QC | 112 ± 5.6
COc1ccc([C@@H]2CC(=O)c3c(O)cc(O[C@@H]4O[C@H](CO[C@@H]5O[C@@H](C)[C@H](O)[C@@H](O)[C@H]5O)[C@@H](O)[C@H](O)[C@H]4O)cc3O2)cc1O |  | rat plasma | 0.48 ng/mL | 7 days | -80 °C | long-term storage | 0.47 ± 0.04
